Published values pooled from the literature.
A part holds a random share of what one study measured.

The chains behind the UniProt entries cited, without tags or fusion partners.
UniProt P53671, whole entry: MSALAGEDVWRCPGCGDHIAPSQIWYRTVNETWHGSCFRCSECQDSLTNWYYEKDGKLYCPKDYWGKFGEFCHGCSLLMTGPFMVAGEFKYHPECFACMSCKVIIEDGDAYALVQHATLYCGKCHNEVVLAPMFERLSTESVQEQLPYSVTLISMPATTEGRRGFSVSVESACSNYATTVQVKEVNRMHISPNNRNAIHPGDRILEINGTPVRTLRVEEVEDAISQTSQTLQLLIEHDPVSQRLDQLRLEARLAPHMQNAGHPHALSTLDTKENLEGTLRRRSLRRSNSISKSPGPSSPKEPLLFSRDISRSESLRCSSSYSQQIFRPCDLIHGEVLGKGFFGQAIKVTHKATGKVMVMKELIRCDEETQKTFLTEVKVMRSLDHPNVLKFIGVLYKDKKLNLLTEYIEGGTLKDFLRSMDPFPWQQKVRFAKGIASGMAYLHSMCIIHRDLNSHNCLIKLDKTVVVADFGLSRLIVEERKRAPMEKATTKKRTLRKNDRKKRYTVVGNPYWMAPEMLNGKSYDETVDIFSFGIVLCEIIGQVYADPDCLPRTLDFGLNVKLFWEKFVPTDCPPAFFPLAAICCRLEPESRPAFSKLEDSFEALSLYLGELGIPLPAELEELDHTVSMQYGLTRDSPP
UniProt Q06187, whole entry: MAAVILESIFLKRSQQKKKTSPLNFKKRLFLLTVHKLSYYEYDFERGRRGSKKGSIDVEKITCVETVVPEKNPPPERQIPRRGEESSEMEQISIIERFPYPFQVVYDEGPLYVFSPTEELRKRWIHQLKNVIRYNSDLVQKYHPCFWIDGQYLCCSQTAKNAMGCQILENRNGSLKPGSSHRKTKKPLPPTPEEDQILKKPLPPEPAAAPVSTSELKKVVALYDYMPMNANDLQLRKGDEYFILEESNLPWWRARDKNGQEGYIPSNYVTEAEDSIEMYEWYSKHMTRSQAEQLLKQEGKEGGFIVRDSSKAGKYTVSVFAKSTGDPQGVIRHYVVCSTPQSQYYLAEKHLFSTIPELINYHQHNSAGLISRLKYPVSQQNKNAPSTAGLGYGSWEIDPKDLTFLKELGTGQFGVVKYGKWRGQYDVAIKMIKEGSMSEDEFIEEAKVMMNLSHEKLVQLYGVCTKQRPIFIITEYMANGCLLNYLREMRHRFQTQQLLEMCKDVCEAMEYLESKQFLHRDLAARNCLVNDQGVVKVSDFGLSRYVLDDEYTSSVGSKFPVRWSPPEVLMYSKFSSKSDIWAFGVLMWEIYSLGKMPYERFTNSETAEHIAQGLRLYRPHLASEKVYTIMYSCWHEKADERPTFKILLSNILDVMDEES
UniProt Q13546, whole entry: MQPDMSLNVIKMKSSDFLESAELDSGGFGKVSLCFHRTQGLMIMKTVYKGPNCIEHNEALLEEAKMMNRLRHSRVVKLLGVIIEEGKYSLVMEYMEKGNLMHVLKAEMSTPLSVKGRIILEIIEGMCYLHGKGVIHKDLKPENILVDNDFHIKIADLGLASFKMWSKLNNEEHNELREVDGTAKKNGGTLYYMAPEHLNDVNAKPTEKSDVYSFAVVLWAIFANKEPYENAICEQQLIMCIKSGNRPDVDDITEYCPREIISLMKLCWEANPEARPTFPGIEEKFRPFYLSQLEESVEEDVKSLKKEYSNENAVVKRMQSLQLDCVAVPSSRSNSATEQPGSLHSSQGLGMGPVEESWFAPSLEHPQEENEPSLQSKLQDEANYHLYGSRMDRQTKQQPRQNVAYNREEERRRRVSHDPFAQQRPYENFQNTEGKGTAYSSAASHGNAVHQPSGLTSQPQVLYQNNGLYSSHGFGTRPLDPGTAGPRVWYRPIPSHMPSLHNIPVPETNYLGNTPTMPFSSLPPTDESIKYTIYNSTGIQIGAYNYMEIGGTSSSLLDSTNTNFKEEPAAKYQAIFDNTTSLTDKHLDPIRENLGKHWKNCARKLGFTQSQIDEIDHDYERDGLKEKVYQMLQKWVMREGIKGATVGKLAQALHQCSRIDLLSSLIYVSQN
UniProt O95819, whole entry: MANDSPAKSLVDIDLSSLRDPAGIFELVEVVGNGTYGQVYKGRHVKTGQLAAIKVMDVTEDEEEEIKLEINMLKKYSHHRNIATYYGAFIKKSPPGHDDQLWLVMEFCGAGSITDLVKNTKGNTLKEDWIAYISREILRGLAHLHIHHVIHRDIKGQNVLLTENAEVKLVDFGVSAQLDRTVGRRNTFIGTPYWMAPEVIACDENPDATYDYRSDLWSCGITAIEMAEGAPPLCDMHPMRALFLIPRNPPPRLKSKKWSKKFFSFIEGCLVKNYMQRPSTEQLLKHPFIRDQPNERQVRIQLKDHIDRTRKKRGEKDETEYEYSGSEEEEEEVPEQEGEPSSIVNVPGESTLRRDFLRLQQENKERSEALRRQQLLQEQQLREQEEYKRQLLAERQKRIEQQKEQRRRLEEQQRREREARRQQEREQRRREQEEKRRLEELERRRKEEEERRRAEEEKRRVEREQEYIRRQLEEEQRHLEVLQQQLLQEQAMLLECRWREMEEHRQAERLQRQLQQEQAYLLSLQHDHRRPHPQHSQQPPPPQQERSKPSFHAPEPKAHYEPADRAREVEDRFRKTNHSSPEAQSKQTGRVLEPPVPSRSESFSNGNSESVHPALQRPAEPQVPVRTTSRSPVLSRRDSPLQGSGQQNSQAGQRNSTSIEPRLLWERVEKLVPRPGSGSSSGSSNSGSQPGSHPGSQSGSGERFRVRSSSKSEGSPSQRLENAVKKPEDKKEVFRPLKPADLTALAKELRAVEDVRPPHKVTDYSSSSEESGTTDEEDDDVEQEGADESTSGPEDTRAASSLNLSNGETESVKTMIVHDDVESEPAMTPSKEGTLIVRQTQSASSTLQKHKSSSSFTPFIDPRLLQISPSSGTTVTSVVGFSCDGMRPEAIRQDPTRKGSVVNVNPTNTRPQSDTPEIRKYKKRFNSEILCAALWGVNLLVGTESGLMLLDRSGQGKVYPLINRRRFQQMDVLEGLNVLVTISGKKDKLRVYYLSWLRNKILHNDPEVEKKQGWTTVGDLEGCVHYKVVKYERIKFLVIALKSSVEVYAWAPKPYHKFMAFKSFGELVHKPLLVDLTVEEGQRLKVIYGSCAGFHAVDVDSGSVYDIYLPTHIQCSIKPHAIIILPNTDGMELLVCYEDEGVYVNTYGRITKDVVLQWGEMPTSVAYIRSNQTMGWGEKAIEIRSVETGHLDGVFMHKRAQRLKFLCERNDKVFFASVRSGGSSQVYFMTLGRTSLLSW
UniProt P04150, whole entry: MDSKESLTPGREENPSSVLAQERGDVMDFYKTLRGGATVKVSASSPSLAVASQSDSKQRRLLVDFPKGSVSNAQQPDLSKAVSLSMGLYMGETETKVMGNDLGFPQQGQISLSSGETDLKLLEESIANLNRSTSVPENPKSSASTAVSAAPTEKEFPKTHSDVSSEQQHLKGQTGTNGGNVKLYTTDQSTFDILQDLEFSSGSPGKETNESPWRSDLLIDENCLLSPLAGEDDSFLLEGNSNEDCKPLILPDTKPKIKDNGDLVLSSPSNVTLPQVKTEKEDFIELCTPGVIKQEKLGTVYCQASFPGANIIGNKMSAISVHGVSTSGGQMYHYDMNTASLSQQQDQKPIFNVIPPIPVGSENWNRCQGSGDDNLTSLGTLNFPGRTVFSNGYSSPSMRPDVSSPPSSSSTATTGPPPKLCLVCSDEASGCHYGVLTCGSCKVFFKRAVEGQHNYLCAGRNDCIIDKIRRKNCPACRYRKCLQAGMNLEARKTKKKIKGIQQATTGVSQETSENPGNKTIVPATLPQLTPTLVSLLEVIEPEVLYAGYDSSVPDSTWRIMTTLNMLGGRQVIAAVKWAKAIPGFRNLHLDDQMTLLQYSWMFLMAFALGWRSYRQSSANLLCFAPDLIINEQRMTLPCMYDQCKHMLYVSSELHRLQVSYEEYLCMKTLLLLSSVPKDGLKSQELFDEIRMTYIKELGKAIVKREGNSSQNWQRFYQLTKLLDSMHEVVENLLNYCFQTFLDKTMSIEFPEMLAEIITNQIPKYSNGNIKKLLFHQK
UniProt P08575, whole entry, looked up: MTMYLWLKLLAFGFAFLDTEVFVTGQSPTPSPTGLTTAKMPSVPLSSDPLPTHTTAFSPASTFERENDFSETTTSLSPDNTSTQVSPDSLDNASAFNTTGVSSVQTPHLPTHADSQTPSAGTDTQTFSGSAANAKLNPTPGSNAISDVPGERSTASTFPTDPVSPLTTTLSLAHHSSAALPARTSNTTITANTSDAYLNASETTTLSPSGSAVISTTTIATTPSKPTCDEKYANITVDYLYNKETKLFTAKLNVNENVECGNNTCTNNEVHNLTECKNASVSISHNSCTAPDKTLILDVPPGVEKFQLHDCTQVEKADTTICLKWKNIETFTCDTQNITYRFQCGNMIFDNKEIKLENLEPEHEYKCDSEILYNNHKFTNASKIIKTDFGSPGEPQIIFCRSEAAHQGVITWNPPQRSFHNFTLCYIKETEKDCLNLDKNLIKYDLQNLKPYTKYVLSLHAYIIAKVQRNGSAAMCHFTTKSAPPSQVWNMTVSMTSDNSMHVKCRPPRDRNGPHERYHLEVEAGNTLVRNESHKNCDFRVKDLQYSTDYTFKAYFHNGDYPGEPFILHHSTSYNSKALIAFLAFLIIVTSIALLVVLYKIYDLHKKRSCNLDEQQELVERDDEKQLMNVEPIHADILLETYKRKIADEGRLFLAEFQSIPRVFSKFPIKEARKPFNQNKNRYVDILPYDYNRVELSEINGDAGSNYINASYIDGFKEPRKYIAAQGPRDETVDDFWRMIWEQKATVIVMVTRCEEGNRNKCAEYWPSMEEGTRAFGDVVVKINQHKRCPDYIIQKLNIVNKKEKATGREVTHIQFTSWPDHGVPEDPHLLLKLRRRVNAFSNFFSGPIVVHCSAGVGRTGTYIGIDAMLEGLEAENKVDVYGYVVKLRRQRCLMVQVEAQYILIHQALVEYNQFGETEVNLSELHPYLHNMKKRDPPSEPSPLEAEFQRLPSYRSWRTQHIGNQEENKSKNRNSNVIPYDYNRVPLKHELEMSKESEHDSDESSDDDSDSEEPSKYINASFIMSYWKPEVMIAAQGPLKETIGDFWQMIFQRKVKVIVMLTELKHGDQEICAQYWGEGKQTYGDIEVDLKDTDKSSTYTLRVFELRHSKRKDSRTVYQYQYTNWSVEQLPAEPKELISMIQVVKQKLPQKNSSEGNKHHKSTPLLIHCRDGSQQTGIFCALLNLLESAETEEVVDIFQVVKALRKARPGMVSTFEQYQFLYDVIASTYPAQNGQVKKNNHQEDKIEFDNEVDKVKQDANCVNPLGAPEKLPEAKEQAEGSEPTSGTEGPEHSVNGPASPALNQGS
UniProt O15146, whole entry, looked up: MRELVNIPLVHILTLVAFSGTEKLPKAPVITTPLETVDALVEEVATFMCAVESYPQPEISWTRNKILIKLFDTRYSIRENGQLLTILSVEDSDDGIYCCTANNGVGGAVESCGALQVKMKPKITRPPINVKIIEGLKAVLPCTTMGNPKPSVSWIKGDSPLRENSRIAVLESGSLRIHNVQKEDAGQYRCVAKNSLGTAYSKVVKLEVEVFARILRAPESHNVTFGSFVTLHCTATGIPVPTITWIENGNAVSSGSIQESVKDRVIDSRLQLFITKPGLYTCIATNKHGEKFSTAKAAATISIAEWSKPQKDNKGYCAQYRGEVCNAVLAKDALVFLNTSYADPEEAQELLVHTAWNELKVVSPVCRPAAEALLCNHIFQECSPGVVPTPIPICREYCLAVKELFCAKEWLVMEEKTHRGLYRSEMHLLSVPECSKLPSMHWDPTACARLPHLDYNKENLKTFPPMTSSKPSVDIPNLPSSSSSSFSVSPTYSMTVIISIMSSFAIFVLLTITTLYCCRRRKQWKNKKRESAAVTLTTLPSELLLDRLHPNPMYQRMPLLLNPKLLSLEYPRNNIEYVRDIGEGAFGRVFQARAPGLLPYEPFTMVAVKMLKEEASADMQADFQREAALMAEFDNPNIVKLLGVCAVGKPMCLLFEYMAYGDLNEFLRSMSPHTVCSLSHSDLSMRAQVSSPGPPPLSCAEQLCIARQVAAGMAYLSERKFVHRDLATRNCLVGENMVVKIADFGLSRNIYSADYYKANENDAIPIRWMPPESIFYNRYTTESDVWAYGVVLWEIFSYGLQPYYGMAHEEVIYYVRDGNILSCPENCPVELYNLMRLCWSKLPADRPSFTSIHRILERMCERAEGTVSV

Block 1
SMILES: CCN1CCN(Cc2ccc(NC(=O)c3ccc(C)c(/C=C/c4cnc5[nH]ccc5c4OC)c3)cc2C(F)(F)F)CC1
Mode: inhibitor
Matrix: human cells
Tested at: 5 µM
Reference: vehicle
LIM domain kinase 2 (LIMK2, Homo sapiens, UniProt P53671); cell-based kinome screen — “log2 fold change”: 0.206.
For Tyrosine-protein kinase BTK (BTK, Homo sapiens, UniProt Q06187); cell-based kinome screen: “log2 fold change” read -0.494.
The “log2 fold change” was -3.03 (Receptor-interacting serine/threonine-protein kinase 1 (RIPK1, Homo sapiens, UniProt Q13546); kinase-CDC37 interaction).
Mitogen-activated protein kinase kinase kinase kinase 4, with CDC37 (MAP4K4, Homo sapiens, UniProt O95819); kinome profiling — “log2 fold change”: 0.193.

Further values, each from its own experiment
NR3C1: Glucocorticoid receptor (NR3C1, Homo sapiens, UniProt P04150)
For `COc1ccc2c(c1)CN([C@H](C)[C@@H]1CC[C@@H]3[C@H]4CC[C@H]5C[C@@H](O)CC[C@@]5(C)[C@H]4CC[C@]31C)CO2`, the EC50 was > 9000 nM (NR3C1; nuclear translocation, agonist, enzyme fragment complementation).
`COc1cc(CC(=O)NCC(NC(=O)C(CCCNC(=O)c2cccc(I)c2)NC(=O)C(Cc2ccc(C(F)(F)P(=O)(O)O)cc2)NC(=O)c2ccc(C)c(Br)c2)C(N)=O)ccc1O` (centres unmarked): inhibition “no inhibition” (Receptor-type tyrosine-protein phosphatase C (PTPRC, Homo sapiens, UniProt P08575); enzyme activity; 10 µM).
`CC#C/C(=N\OC[C@H]1COCCN1)c1ccc2ncnc(Nc3ccc(OCc4cccc(F)c4)c(Cl)c3)c2c1` gave an inhibition of 0.4% (Muscle, skeletal receptor tyrosine-protein kinase (MUSK, Homo sapiens, UniProt O15146); kinase activity; 10 µM).
`C[C@@]12CCC(=O)C=C1CC[C@H]1C2[C@@H](O)C[C@]2(C)[C@@H]1CC[C@@]2(O)C(=O)COC(=O)C1CCCC1` (some centres unmarked) has an EC50 of 610 nM (NR3C1; nuclear translocation, agonist, enzyme fragment complementation).

Some of these lines once more (further values, each from its own experiment):
`CC#C/C(=N\OC[C@H]1COCCN1)c1ccc2ncnc(Nc3ccc(OCc4cccc(F)c4)c(Cl)c3)c2c1` gave an inhibition of 0.4% (Muscle, skeletal receptor tyrosine-protein kinase (MUSK, Homo sapiens, UniProt O15146); kinase activity; 10 µM).
